Experimental data from different studies.
A part holds a random share of what one study measured. Changes are numbered by the printed parent chain.

Series 1 — target: CCNA2, cyclin fold, Cln2 fusion (human); method: yeast growth competition, sequencing; sample: yeast; notes: strong parent motif; reference: not given; direction: higher = stronger binding
Parent: PKMYT1 docking peptide (human); SFEPRNLLSLFED
Substitution | normalised enrichment score
SFEPRGLLSLFED [N6G] | 0.421
NFEPRNLLSLFED [S1N] | 3.26
SFEPRNLHSLFED [L8H] | -0.0322
SFEPRCLLSLFED [N6C] | 2.86
SFEPRNLLSAFED [L10A] | 2.58
SFEPRNLLSLFTD [E12T] | 1.91
SFEPRNLLSLFEP [D13P] | 2.5
SFEPRNLLSNFED [L10N] | 1.91
SFEFRNLLSLFED [P4F] | -0.738
SFEPRHLLSLFED [N6H] | 0.0496
SFEPRNLVSLFED [L8V] | 0.883
SFEPRNLSSLFED [L8S] | 1.75
SFEPRNLDSLFED [L8D] | -0.0465
SFEPRNLLPLFED [S9P] | 3.91
SFEPRNLLSFFED [L10F] | 1.81
SFEPRPLLSLFED [N6P] | -0.384

Series 2 — method: RNA Bind-n-Seq; molecule type: RNA; sample: in vitro; concentration: not given; reference: input RNA pool; direction: higher = stronger binding
Target: RING finger protein unkempt homolog, zinc fingers 1-6, GST-SBP tag (UNK, Homo sapiens, UniProt Q9C0B0, residues 30-357)
Notes: RNA with constant flanks, human and mouse sites, ends assumed
Shared flanks, not repeated: GGGAGUUCUACAGUCCGACGAUC … CAACAGAGGAUUGAGCAUCA
Target sequence (chain): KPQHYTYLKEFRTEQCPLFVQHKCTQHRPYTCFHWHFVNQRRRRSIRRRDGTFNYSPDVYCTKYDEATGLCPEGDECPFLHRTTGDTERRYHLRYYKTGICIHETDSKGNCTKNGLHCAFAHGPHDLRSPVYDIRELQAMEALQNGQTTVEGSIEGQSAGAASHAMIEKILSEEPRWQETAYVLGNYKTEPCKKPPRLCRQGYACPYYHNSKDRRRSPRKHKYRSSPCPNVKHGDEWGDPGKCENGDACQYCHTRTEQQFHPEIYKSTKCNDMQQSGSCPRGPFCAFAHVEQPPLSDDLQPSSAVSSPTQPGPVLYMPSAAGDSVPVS
Oligonucleotide | bound/input enrichment [ratio]
UCUCAAGCAUCUUCAAAGAUACUGAAGUACUCUUUCCCAGUGGGACUAAGAACCAGCAGAACAGAUAUACUUUCUCUCAAGAUGUCUCUCCAGCAAAACUUUUCCCCAUGUCCAAGGCCU | 0.204
GCAGUGGAAAGAGAAGCAGAGCAUAUGAACUAUGUGUCCUUUUCAGGGAGUAAGGCAUGUCGAGGCUUUGGCUAUGUCACUUUUUCAAUGCUGGAAGAUGUUCAGAGGGCCCUCAAGGAG | 0.181
AUCUCUUGCGGCUGAAAGUGGACAUCUUAUUAGACAUGCUUUCAGAGUCCACUGCUGAAUCCCACUUAAUGGAGAAGGAACUGGAUGAACUGAGGAUCAGCCGGAAGAGAAAAUGAAGAC | 0.478
ACUCCAAAGCCACUUCGAAGUAGUGCUGAUCCUGCACUGAAUCAAGAGGUUGCAUUAAAAUUAGAAUCAAGUCCAGAGUCACUGGGACUUUCUUUUACCAUGCCCCAGAUUCAAGAUCAG | 0.159
CAGAACCUACCUUCUGGAUCAUCACGUGUUGGAGCCAUUAAGCUUACCUACAUUUCAAAGGUUAGCGAUGCUACUAAGCUAAGGCCAAAGGCGGAGUUCUGUUUUGUUAUGAAUGCAGGA | 0.0747
GAGGUACUUAUAAGACAUUUCCAAAGUCAAGUUAAUGAGCUGCAGAGUAAACAAGAGUCUCUCGUAGUUUCUGAAGUUCGAGAAGAAAUUCUACAGAAAGAGAUUACAAAACUCUUAGAA | 0.244
CCUCAUGAGGUUCAGAAGCUGCAAUGUCCCAAGAUAAAGACUGUGGAUAUCAGUUUGAUUCUUUCUGAAGCCAUUCGGAGAAUCCACAAUGGAGAGUCCAUGGCCUACCUUUUCCGAAAC | 0.0835
UCUGAGGAAAGGAGACCCUCUCCCAAGGAGUCCAAGGAGGCAGAUGUGGCCACAGUCCGUUUAGGGGAAAAAAGGAGUCACCAUCUAGCUCACUACAGGGCUUCAGAAGAAGAACCUGAA | 0.571

Series 3 — method: DHFR PCA, deep sequencing; sample: yeast; together with: (+)-ABA 58 µM; reference: wild-type fitted maximum; direction: higher = stronger binding
Target: ABI1, truncated, D143A, DHFR fusion (Arabidopsis thaliana)
Notes: methotrexate growth selection, single substitutions
Parent: PYL1, truncated, DHFR fusion (Arabidopsis thaliana); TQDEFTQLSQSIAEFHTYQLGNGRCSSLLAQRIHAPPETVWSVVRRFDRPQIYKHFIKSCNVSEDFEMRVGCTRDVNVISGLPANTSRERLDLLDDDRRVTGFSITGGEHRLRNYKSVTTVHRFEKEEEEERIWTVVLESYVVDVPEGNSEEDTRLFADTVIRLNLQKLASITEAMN; partner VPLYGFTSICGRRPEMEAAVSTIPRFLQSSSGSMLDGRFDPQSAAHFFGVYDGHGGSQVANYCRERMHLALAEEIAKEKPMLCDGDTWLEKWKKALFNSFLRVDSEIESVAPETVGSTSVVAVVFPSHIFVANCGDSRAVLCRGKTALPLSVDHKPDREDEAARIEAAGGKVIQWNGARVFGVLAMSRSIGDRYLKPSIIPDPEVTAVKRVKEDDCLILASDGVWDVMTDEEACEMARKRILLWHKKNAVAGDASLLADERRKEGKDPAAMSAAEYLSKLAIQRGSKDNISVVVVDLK
Substitution | relative binding score
N149W | 4.88%
P146M | 26.7%
K54N | 12.2%
R155F | 6.25%
R155A | 52.6%
R74Q | 8.35%
V44Y | -14%
H16S | -9.62%
S87V | 20.8%
E128T | 101%
K54H | -1.77%
V118T | 96.3%
S63L | 72.9%
L138S | 12.3%
D153E | 88.1%
Q7T | 80.1%

Series 4 — target: JDP2, bZIP domain (human); method: DHFR protein complementation; sample: yeast; reference: wild-type JUN-FOS pair; direction: higher = stronger binding
Notes: single substitutions, most at no-binding floor
Parent: JUN, bZIP domain (human); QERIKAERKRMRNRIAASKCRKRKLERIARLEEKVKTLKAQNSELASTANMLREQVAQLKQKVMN; partner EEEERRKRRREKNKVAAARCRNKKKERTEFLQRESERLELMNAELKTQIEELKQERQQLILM
Substitution | binding fitness
L31F | 0.248 natural log
E54A | 0.195 natural log
R30I | 0.256 natural log
A49S | 0.163 natural log
Q41S | -1.25 natural log
L52I | 0.238 natural log
L38R | -0.0072 natural log
S43F | 0.254 natural log
A46P | -0.836 natural log
K39M | 0.203 natural log
A29V | 0.0587 natural log
K39V | 0.285 natural log

Some of these lines once more (series 3):
Substitution | relative binding score
R155A | 52.6%
R74Q | 8.35%
V44Y | -14%
